# Published values of several laboratories.
# Parts stem from different laboratories: compare values within a part only.

# Sample 1
# Target: Ras GTPase-activating protein-binding protein 1, C-terminal RGG region (G3BP1, Homo sapiens, UniProt Q13283)
# UniProt Q13283, sequence (whole entry, looked up): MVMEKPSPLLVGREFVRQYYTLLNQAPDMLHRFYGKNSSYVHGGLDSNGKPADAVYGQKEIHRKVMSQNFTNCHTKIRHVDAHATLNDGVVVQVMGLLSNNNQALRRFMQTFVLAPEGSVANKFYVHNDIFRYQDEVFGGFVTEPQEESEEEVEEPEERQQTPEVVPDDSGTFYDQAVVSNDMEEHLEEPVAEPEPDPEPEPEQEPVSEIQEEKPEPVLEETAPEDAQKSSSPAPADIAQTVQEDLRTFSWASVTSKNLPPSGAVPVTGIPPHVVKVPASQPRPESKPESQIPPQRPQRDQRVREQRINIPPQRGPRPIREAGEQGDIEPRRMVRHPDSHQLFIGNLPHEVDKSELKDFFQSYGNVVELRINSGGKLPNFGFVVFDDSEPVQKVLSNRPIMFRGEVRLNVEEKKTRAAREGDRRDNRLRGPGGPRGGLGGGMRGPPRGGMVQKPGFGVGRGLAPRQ
# Technique: RNA Bind-n-Seq
# Molecule type: RNA
# Medium: in vitro
# Tested at: 1 µM
# Notes: whole 134-nt RNA, ends assumed
# With: 150 mM KCl
# Reference: input library
# Direction: higher = stronger binding
Oligonucleotide,log2 enrichment
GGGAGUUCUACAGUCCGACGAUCCUGUGCUACACAUCGUAUGUACCGAAUCGGGGUUUUUUUGGGGAAAAAAAGGGGUUUGGGGAAAGUAUUAUGUUACGCCGUUCGGAUCUGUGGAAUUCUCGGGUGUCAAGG,-0.521
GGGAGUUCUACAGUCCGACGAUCCCUGUGCUACACAUCGUAUGUACCGAAUCGGGCCCCCCGGGGCCCCCCGGGCCCCCCGGGGAAAGUAUUAUGUUACGCCGUUCGGAUCUGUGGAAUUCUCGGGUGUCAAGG,-2.24
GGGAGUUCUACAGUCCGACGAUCCACAGACAACACGCACCCACACAGACACAGAGGGAAGGGGUUGGGAUGGGGACAGGGUGCACAGCAGGGCGGGGUAGGACCCCAGCCCCCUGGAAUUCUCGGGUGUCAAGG,-1.06
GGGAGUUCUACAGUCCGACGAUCUCCUCAAGUCCUGUGCUACACAUCGUAUGUACCGAAUCGGUGGUGGGGUGGGAAAGUAUUAUGUUACGCCGUUCGGAUCUGCACUUCCAGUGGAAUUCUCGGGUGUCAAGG,0.327
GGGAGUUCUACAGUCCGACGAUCGGGGGUGACCGCCGGAGCGCGGCGUGAGCCCUCCCCCUUGGGAUCCCGCAGCUGACCAGUCGCGCUGACGGACAGACAGACAGACACCGCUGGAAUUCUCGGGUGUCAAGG,-2.04
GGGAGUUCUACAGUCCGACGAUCCACAGACAACACGCACCCACACAGACACAGAGGGAAGGGGUUGGGAUGGGGACCGGGUGCACAGCAGGGCGGGGUAGGACCCCAGCCCCUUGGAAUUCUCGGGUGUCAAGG,0.531
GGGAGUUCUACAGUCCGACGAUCCACAGACAACACGCACCCACACAGACACAGAGGGAAGGGGUUGGGAUGGGGACAGGGUGCACAGCAGGGCGGGGUAGGACCCCAACCCCUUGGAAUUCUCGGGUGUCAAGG,-0.964
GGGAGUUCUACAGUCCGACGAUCUGGCCCUGGUGGCAUGCGGGGAGGAAGAGGUGGCCUCAUGGAUCGUGGUGGUCCCGGUGGAAUGUUCAGAGGUGGCCGCGGUGGAGACAGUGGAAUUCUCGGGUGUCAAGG,1.6
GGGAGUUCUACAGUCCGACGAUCUCAAGUCCUGUGCUACACAUCGUAUGUACCGAAUCGGCCCGGGCCCGGCCCGGGGAAAGUAUUAUGUUACGCCGUUCGGAUCUGCACUUCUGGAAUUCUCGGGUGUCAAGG,-2.1

# Sample 2
# Target: Phosphate system positive regulatory protein PHO4, full length, GST-tagged (PHO4, Saccharomyces cerevisiae, UniProt P07270, residues 1-312)
# Technique: competition protein-binding microarray
# Molecule type: double-stranded DNA, one strand shown
# Medium: in vitro
# Tested at: 2 µM
# Notes: whole 60-bp probe, lowest competitor level
# With: Cbf1 competitor, 0.05 µM
# Direction: higher = stronger binding
# Construct (chain): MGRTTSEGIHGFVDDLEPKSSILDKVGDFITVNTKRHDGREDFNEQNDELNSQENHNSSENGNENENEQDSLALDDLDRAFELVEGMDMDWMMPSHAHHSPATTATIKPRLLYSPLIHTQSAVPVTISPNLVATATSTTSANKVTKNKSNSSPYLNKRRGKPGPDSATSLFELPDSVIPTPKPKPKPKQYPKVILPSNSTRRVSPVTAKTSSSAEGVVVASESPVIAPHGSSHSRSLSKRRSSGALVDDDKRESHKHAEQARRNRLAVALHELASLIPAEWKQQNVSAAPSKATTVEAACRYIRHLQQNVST
Oligonucleotide,fluorescence intensity [a.u.]
AAAGCGGTAATTTGCACCGTGGGTGCAGATATCTATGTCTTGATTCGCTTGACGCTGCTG,9420
CAGCTGGTCTCCCAGCACGTGGCCTGGAGCCCAGCCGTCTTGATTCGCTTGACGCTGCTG,15700
TGCGCAACAACTTGGAACGTGGGTGTATGTCTAGAAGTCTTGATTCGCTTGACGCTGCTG,12200
CATACCCAACCTTGTCCTGTGGGTGAAGATATTTGTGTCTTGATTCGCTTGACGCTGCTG,4560
CTTAACGGCCTTGTTGGTGTGACGCTCACCTTGCTCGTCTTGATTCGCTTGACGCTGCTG,4040
AACAACCGCCTCGACCACGCACCAAAGAGCTGTTAAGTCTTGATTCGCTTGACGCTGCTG,6980
TAAGTTCCTTCCCAACACGTGGATTAGAATAGGTAGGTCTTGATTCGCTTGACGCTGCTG,16400
TCTCTCTGCTGATTGGACGTGGGTACGTACTATTTCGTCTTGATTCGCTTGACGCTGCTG,5590
AAATTACTAAGTTGCACTGTGGGTGACGCCGTATGAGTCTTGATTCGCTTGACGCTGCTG,4370
CGACAGCTGCACCATCACGTGCCGATTGTCCTTATTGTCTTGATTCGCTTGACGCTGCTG,16800
CGTCCTAGTGATTTTCACGTGCAATCCATGAGGAAGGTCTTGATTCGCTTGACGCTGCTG,14500
CGTCCTAGCGATTGAGCCGTGGGTGCCATGAGGAAGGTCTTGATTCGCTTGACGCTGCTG,6660
TAAAAGAACTAGAGCATCGTGATGGTATGATTCACTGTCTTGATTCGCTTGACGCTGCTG,7170
TAGAGGCCCAACCGTCACGGCGTCTGGCTACGAACCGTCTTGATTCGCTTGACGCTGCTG,3350
CCCGTTGAGCAGTGCCCCGTGGAACCGTAAACTATCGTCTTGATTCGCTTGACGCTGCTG,8010
TCATACACAATGCGACACATGAAAATACTACTCTTTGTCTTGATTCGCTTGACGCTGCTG,5370
CCTTTGAAGTATTTTCTCGTGGAAGCAGCCTCGTAAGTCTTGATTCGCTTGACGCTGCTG,4970
TATCACTCTTGATCGCATGTGCCGTTTCCGAGAACGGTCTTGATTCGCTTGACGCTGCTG,11600
AGTCTCTTTTAGTTCACCGTGACGGTACGCACTGATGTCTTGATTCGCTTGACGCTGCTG,5300

# Sample 3
# Target: Histone acetyltransferase KAT6A, winged helix 1, GST fusion (KAT6A, Homo sapiens, UniProt Q92794, residues 1-85)
# Technique: protein binding microarray
# Molecule type: double-stranded DNA, one strand shown
# Medium: in vitro
# Tested at: not given
# Notes: 8-mer, flanks averaged, mean of 2 arrays, mostly near background
# Reference: not given
# Direction: higher = stronger binding
# Construct (chain): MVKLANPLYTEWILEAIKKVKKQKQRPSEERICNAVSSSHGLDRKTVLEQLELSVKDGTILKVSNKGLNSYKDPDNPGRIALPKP
Oligonucleotide,E-score
CATTTCTA,-0.0201
GTATAGAA,-0.115
CATCCCCC,-0.0208
GAGTAAGC,0.0244
CTGTCTAA,-0.108
CCTTGCCG,0.258
GGCTTCCC,0.0487
AAATAGGA,-0.138
AGAAAAAA,-0.196
GTGGGGGA,-0.0822
ACCCCAGA,-0.22
ACCTAACG,-0.029
CGAGTAGC,0.165
CCTCCAAA,-0.0815
AGGTAGCA,-0.277
CAGAACAA,-0.203
ACAGATTA,-0.0939
ATACGTGA,-0.0775
GACTGGAA,-0.238
CAAAAAAC,-0.187
CGAAACCG,0.221
GCACATCC,0.0498

# Sample 4
# Target: RNA binding protein fox-1 homolog 2, RRM domain, GST-SBP tag (RBFOX2, Homo sapiens, UniProt O43251-10, residues 100-194)
# Technique: RNA Bind-n-Seq
# Molecule type: RNA
# Medium: in vitro
# Tested at: 365 nM
# Notes: natural RNA segment, single round, ends assumed
# Reference: no-protein control
# Direction: higher = stronger binding
# Residues (chain): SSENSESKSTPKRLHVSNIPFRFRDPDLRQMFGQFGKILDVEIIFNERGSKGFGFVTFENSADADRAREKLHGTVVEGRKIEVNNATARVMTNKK
Oligonucleotide,RBNS enrichment (R)
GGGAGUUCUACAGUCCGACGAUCCUUUGAAGAUCUUCAUGGCUGCUGUGAGACCCUGCUUUGGCAGCACCGAGUCACCUGGUGAGCCUCAGGCUGGCACACCGAAGUUGUGCCGUGCUUACGUUAUUUAUUAGUGGAAUUCUCGGGUGCCAA,0.212
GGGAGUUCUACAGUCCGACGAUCCUAUUCUCUCAGACGGUGGAAUAUUUGGAAAAAUUUUAAAACAAUUAAAAUUUUAAAGCAAUCUUGGCAGACUAAAACAAGUACAUCUGUACAUGACUGUAUAAUUACGAUGGAAUUCUCGGGUGCCAA,0.626
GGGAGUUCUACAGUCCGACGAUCAAUAUUGUUUAAUCUUAAAACUGGGCAACUUUGGAAGAACUUUUAACAGAAGCCUCAAUGAUGAUCACUUUGAAUUGCUUGUGAUUUCAAAAAUAAAGCAGUGAAGCAAUUGGAAUUCUCGGGUGCCAA,0.692
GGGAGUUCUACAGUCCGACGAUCCCGUAGAUUAGCCUUUAGAAGUCAGUGUGGUGGCCGGCAGUGAAGUUUUCUUCACUAACAUUUAUUACCCUAGAUUAUUCAUGGGAAUCUGGAACUGUUGGACACAGUUGUGGAAUUCUCGGGUGCCAA,0.209
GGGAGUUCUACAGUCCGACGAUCUUCUCCUGUCCUUUUCUUGGCUGGAAGAAGUUGGCCUCCUGGGAGUGUAGUUUUCUGUUUUAAAUCCCCCACCCCUGGCUGGGCUCAGUGGCUCACCCCUGUAAUCCCAGUGGAAUUCUCGGGUGCCAA,0.346
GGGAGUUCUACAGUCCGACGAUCCUCCCCUAUCACUUCAAGUGUUUAUACCUGAGUUUCUUAGGAAGAAAGUAAGUCUGAUGGCUUGUUGUUUUGCUGUAGUUGUUUUGAAAAGCCGAAAUCAAAUGGUCAAGUGGAAUUCUCGGGUGCCAA,0.987
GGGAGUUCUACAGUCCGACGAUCCUGUGGCACUCAGGGUCAAACAGACUAUCCAUUCCCCAGCAUGAAUGUGCCUUUUAAUUAGUGAUCUAGAAAGAAGUUCAGCCGAACCCACACCCCAACUCCCUCCCAAGUGGAAUUCUCGGGUGCCAA,4.66
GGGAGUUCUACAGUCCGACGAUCUUCAGGCCCUAUGAGGGGGUGGGAAGGAAGGGUCUCUUCAGUUUUUUAGAUGAGCUGGGCUACUUUGUGCUCAGAGUCUACAUUCCAGAUUGAUUAGAGUCUUAGGACAUUGGAAUUCUCGGGUGCCAA,0.412

# Excerpt of the above (sample 1):
Oligonucleotide,log2 enrichment
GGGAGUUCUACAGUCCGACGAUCCACAGACAACACGCACCCACACAGACACAGAGGGAAGGGGUUGGGAUGGGGACCGGGUGCACAGCAGGGCGGGGUAGGACCCCAGCCCCUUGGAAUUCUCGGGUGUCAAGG,0.531
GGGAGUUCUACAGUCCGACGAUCCACAGACAACACGCACCCACACAGACACAGAGGGAAGGGGUUGGGAUGGGGACAGGGUGCACAGCAGGGCGGGGUAGGACCCCAACCCCUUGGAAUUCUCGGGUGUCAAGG,-0.964
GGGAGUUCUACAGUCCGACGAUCUCCUCAAGUCCUGUGCUACACAUCGUAUGUACCGAAUCGGUGGUGGGGUGGGAAAGUAUUAUGUUACGCCGUUCGGAUCUGCACUUCCAGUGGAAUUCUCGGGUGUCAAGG,0.327
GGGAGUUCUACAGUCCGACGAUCUCAAGUCCUGUGCUACACAUCGUAUGUACCGAAUCGGCCCGGGCCCGGCCCGGGGAAAGUAUUAUGUUACGCCGUUCGGAUCUGCACUUCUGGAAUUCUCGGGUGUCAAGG,-2.1
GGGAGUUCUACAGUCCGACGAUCUGGCCCUGGUGGCAUGCGGGGAGGAAGAGGUGGCCUCAUGGAUCGUGGUGGUCCCGGUGGAAUGUUCAGAGGUGGCCGCGGUGGAGACAGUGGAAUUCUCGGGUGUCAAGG,1.6
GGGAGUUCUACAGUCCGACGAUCCCUGUGCUACACAUCGUAUGUACCGAAUCGGGCCCCCCGGGGCCCCCCGGGCCCCCCGGGGAAAGUAUUAUGUUACGCCGUUCGGAUCUGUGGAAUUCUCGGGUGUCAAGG,-2.24
